# Experimental data pooled from the literature.
# Compare with care: the assays were run in different laboratories. Several values in a cell are separate wells, animals, samples, runs or records. Numbers after ± are the reported error.
# Mapk1: Mitogen-activated protein kinase 1 (Mapk1, Rattus norvegicus, UniProt P63086)
# CA1: Carbonic anhydrase 1 (CA1, Homo sapiens, UniProt P00915)
# PFF0160c E182D: Dihydroorotate dehydrogenase (quinone), mitochondrial (PFF0160c, Plasmodium falciparum, UniProt Q08210, E182D)
Structure (SMILES),target or system,assay,test system,setting,endpoint,result
CC[C@H](C)[C@H](NC(=O)[C@H](CCCNC(=N)N)NC(=O)[C@H](CC(C)C)NC(=O)CNC(=O)[C@H](CCCCN)NC(=O)[C@H](CCCCN)NC(=O)[C@H](CCCNC(=N)N)NC(=O)[C@H](CCCCN)NC(=O)[C@H](CCCCN)NC(=O)[C@H](CCCCN)NC(=O)[C@H](C)NC(=O)[C@@H]1CCCN1C(=O)[C@H](C)NC(=O)[C@@H](N)Cc1ccc(O)cc1)C(=O)N[C@@H](CCCCN)C(=O)NCC(=O)O,Mapk1,"enzyme activity, inhibitor, fluorescence",,pH 7.4,IC50,10.1 µM
CCN(N=Cc1cnc2ccc(Br)cn12)S(=O)(=O)c1cc([N+](=O)[O-])ccc1C,"Phosphatidylinositol 4,5-bisphosphate 3-kinase catalytic subunit beta isoform (PIK3CB, Homo sapiens, UniProt P42338, M783K)","enzyme activity, inhibitor",,,IC50,0.55 µM
C=C1NC(=O)[C@H](CO)NC(=O)[C@H](CSCC(N)=O)NC(=O)CNC(=O)[C@H](Cc2ccc(O)cc2)NC(=O)[C@H](C)NC(=O)[C@H](CO)NC(=O)[C@H](CC(=O)O)NC(=O)CNC(=O)[C@H](CC(C)C)NC(=O)[C@H](Cc2c[nH]c3ccccc23)NC(=O)[C@H](Cc2c[nH]c3ccccc23)NC(=O)c2ccc(-c3nc(C(=O)OC)cs3)nc2-c2csc1n2,"TRAF2 and NCK-interacting protein kinase (TNIK, Homo sapiens, UniProt Q9UKE5)","enzyme activity, inhibitor, ADP detection",,,IC50,2 µM
COC(=O)Cc1cc2c(cc1C(=O)c1cccc(Br)c1)OCO2,"Glutamate receptor AMPA 1/2 (Gria1/Gria2, Rattus norvegicus, UniProt P19490+P19491)","ion current, antagonist, patch clamp",,,IC50,5.37 µM
COc1ccc(S(=O)(=O)Oc2ccc(/C=N/NS(=O)(=O)c3cc(Cl)ccc3Cl)cc2)cc1,CA1,"enzyme activity, inhibitor, absorbance",,,IC50,0.499 µM
O=S(=O)(F)c1cccc(S(=O)(=O)Nc2ccc(C3CC3)cc2F)c1,"GTPase KRas, with RAF (KRAS, Homo sapiens, UniProt P01116)","RAF-KRAS interaction, inhibitor, NanoBRET",HEK293T,24 h,IC50,29 ± 9 µM
CC12CCC3C(CCC4CC(O)CCC43C)C1CCC2C#N (stereo not shown),"5-hydroxytryptamine receptor 1A (HTR1A, Homo sapiens, UniProt P08908)","cAMP, antagonist",,,IC50,5.14 µM
CC[C@H](C)[C@H](NC(=O)[C@H](CCCCN)NC(=O)[C@H](CC(C)C)NC(=O)[C@@H]1CCCN1C(=O)[C@@H]1CCCN1C(=O)[C@@H](NC(=O)[C@H](CCCCN)NC(=O)[C@H](CCCNC(=N)N)NC(=O)[C@@H](NC(=O)[C@H](CCC(N)=O)NC(=O)[C@H](C)NC(=O)[C@@H](N)Cc1ccc(O)cc1)C(C)C)C(C)C)C(=O)N1CCC[C@H]1C(=O)N[C@H](C(=O)N[C@@H](CO)C(=O)N[C@@H](CCCNC(=N)N)C(=O)O)C(C)C,Mapk1,"enzyme activity, inhibitor, fluorescence",,pH 7.4,IC50,> 200 µM
COc1cc(CN2CCN(C(=O)Cc3ccccc3)CC2)cc(OC)c1O,"Alpha-synuclein (SNCA, Homo sapiens, UniProt P37840)","fibril growth, ELISA and FlAsH",,"20 h, together with: 6 µM monomer",IC50,2 ± 1 µM
O=C(/C=C/c1ccccc1)c1ccc(S(=O)(=O)F)cc1,"Protein disulfide-isomerase (P4HB, Homo sapiens, UniProt P07237)","enzyme activity, inhibitor",,,IC50,66 µM
Cc1cc(Cl)ccc1OC(C)C(=O)N1CCc2ccccc21 (stereo not shown),PFF0160c E182D,"enzyme activity, inhibitor, absorbance",,,IC50,0.12 µM
O=C(c1cc(Cc2n[nH]c(=O)c3ccccc23)ccc1F)N1CC(CNC2CC2)C1,"Poly [ADP-ribose] polymerase 1 (PARP1, Homo sapiens, UniProt P09874)","enzyme activity, inhibitor",,,IC50,0.0008 µM
O=S(=O)(N/N=C/c1ccc(OS(=O)(=O)c2cc(Cl)ccc2Cl)cc1)c1cc(Cl)ccc1Cl,CA1,"enzyme activity, inhibitor, absorbance",,,IC50,0.0256 µM
CC(C)C[C@H](NC(=O)[C@H](CCC(N)=O)NC(=O)[C@H](CCCCN)NC(=O)[C@H](CCCNC(=N)N)NC(=O)[C@H](CCCCN)NC(=O)[C@H](CCC(=O)O)NC(=O)[C@H](CCCNC(=N)N)NC(=O)[C@H](CCCNC(=N)N)NC(=O)CNC(=O)[C@H](CC(N)=O)NC(=O)[C@H](C)NC(=O)[C@@H](N)Cc1ccc(O)cc1)C(=O)N[C@H](C(=O)N[C@@H](CC(C)C)C(=O)N1CCC[C@H]1C(=O)N[C@@H](CO)C(=O)O)[C@@H](C)O,Mapk1,"enzyme activity, inhibitor, fluorescence",,pH 7.4,IC50,23.8 µM
Cc1cc(O)c2c(c1)OC(C)(C)c1ccc(C)cc1-2,"Sucrase-isomaltase, intestinal (Si, Rattus norvegicus, UniProt P23739)","enzyme activity, inhibitor, absorbance",,,IC50,590 µM
Cc1nnc(C(C)C)n1C1CC2CCC(C1)N2CCC(NC(=O)Cc1ccc(-c2nncnn2)cc1)c1ccccc1 (stereo not shown),"C-C chemokine receptor type 5 (CCR5, Homo sapiens, UniProt P51681, Y184K)","calcium mobilization, antagonist",HEK293T cells expressing CCR5,together with: PSC-RANTES,IC50,0.00621 µM and 0.004 µM and 0.00721 µM
CCCN(Cc1nnc(-c2ccco2)o1)C(=O)C1CCCN(C(=O)c2ccc(Cl)cc2)C1 (stereo not shown),PFF0160c E182D,"enzyme activity, inhibitor, absorbance",,,IC50,1.03 µM
CC[C@H](C)[C@H](NC(=O)[C@H](CCCCN)NC(=O)[C@H](CC(N)=O)NC(=O)[C@H](CCCNC(=N)N)NC(=O)[C@H](CCCCN)NC(=O)[C@@H](NC(=O)[C@H](CCCCN)NC(=O)[C@H](C)NC(=O)[C@@H](N)Cc1ccc(O)cc1)[C@@H](C)O)C(=O)N[C@@H](CC(C)C)C(=O)N[C@@H](CCCCN)C(=O)N[C@@H](CC(C)C)C(=O)N[C@@H](CCCCN)C(=O)N[C@@H](Cc1ccccc1)C(=O)N1CCC[C@H]1C(=O)N[C@@H](CCCNC(=N)N)C(=O)O,Mapk1,"enzyme activity, inhibitor, fluorescence",,pH 7.4,IC50,32.5 µM
Cc1[nH]c(C)c(S(=O)(=O)NC2CCCCC2)c1C(=O)N1CCCC1,"D(3) dopamine receptor (DRD3, Homo sapiens, UniProt P35462)","Go activation, antagonist, BRET",,together with: dopamine,IC50,> 100 µM
CC(C)N1CCCCC1C(=O)NC(Cc1ccc(-c2ccccc2)cc1)B(O)O (stereo not shown),"Proteasome subunit beta type-10 / Proteasome subunit beta type-3 (Homo sapiens, UniProt P40306+P49720)","β2i activity, inhibitor",,"immunoproteasome, together with: Ac-KQL-AMC",IC50,> 10 µM
CC[C@H](C)[C@H](NC(=O)[C@H](CCCCN)NC(=O)[C@H](CC(C)C)NC(=O)[C@@H]1CCCN1C(=O)[C@H](CCCNC(=N)N)NC(=O)[C@@H]1CCCN1C(=O)[C@H](CCCCN)NC(=O)[C@@H](NC(=O)[C@H](CCCCN)NC(=O)[C@H](CC(N)=O)NC(=O)[C@H](CCCCN)NC(=O)[C@@H](NC(=O)[C@H](C)NC(=O)[C@@H](N)Cc1ccc(O)cc1)[C@@H](C)O)C(C)C)C(=O)N[C@H](C(=O)N[C@@H](CCCNC(=N)N)C(=O)O)[C@@H](C)CC,Mapk1,"enzyme activity, inhibitor, fluorescence",,pH 7.4,IC50,7.75 µM
CN(C)[C@H]1C[C@@]23CC[C@@]4(O2)C(=CC[C@]2(C)[C@@H](c5ccc6ccncc6c5)CC[C@H]24)C=C3[C@@H](O)[C@@H]1O,"Serine/threonine-protein kinase STK11 (STK11, Homo sapiens, UniProt Q15831)","ATP probe labelling, inhibitor, KiNativ profiling",,1 µM,inhibition,7.1%
N[C@H](C(=O)N1CCCC1)C1CCN(c2nccc3c(-c4ncc(Cl)cc4Cl)cccc23)CC1,"Protein-arginine deiminase type-3 (PADI3, Homo sapiens, UniProt Q9ULW8)","enzyme activity, inhibitor",,,IC50,0.106 µM
CSCC[C@H](N)C(=O)N[C@@H](CC(=O)O)C(=O)N[C@@H](CC(C)C)C(=O)N1CCC[C@H]1C(=O)N[C@@H](Cc1ccccc1)C(=O)N[C@@H](C)C(=O)N[C@@H](Cc1ccccc1)C(N)=O,"Transcriptional regulator PlcR (Bacillus thuringiensis, UniProt A0ACM8Q0N2)","reporter gene, inhibitor, lacZ reporter",407 Cry−,,IC50,0.485 ± 0.037 µM
CCCCCCCCCCCCCCCCCC(=O)NC[C@H]1CC[C@H](C(=O)N[C@@H](CCC(=O)NCCCOCCOCCOCCCNC(=O)COCC(=O)N[C@@H](Cc2ccc(O)cc2)C(=O)NC(C)(Cc2ccccc2)C(=O)N[C@@H](CC(C)C)C(=O)N[C@@H](CCCC)C(=O)N[C@@H](CCCNC(=N)N)C(=O)N2CCC[C@H]2C(=O)N[C@@H](CCCNC(=N)NC)C(=O)N[C@@H](CC(N)=O)C(N)=O)C(=O)O)CC1 (stereo partly shown),"Neuromedin-U receptor 1 (NMUR1, Homo sapiens, UniProt Q9HB89)","ligand displacement, radioligand",,,IC50,0.00295 µM
C[C@@H]1COCCN1c1nc(NCc2cccnc2C(F)(F)F)c2cccnc2n1,"A-type voltage-gated potassium channel KCND3 (KCND3, Homo sapiens, UniProt Q9UK17)","ion current, inhibitor",,,IC50,> 33 µM
O=C(O)CCn1c(=O)oc2cc(Cl)c(Cl)cc21,"Prostaglandin G/H synthase 2 (PTGS2, Homo sapiens, UniProt P35354)",inhibitor,,,IC50,> 100 µM
Cc1ccc2c(n1)c(-c1cccc(S(C)(=O)=O)c1)c(C)n2C/C(F)=C/CN,"Cytochrome P450 1A2 (CYP1A2, Homo sapiens, UniProt P05177)","enzyme activity, inhibitor","human, liver microsomes",,IC50,> 10 µM
CC(C)C[C@H](NC(=O)[C@H](CCCNC(=N)N)NC(=O)[C@H](CC(C)C)NC(=O)[C@@H](NC(=O)[C@H](CC(N)=O)NC(=O)[C@H](CCCCN)NC(=O)[C@H](CCCCN)NC(=O)[C@H](CCCNC(=N)N)NC(=O)[C@H](CCCCN)NC(=O)[C@@H](NC(=O)[C@H](CCCCN)NC(=O)[C@H](CCC(=O)O)NC(=O)[C@H](C)NC(=O)[C@@H](N)Cc1ccc(O)cc1)C(C)C)C(C)C)C(=O)N[C@@H](CS)C(=O)N[C@@H](CS)C(=O)O,Mapk1,"enzyme activity, inhibitor, fluorescence",,pH 7.4,IC50,17.6 µM
O=C1NC2(CC2)COc2ncc(F)cc2[C@H]2COCCN2c2ccn3ncc1c3n2,,,"Sprague-Dawley rat, male, serum","oral, 20 mg/kg/day, end of treatment, 4-week subacute toxicity",serum total bilirubin,1.1 ± 0.4 µmol/L
O=C(COP(=O)(O)O)C(O)C(O)C(O)COP(=O)(O)O (stereo not shown),"Fructose-bisphosphate aldolase (Candida albicans, UniProt Q9URB4)","enzyme activity, inhibitor, absorbance",,,IC50,3.87 µM
CC(C)[C@H]1NC(=O)C[C@H]2/C=C/CCSSC[C@@H](NC1=O)C(=O)N[C@H](Cc1cccc3ccccc13)C(=O)NCC(=O)O2,"Ribosomal protein S6 kinase alpha-1 (RPS6KA1, Homo sapiens, UniProt Q15418)","enzyme activity, inhibitor",,10 µM,inhibition,-1.3%
CC(C)C[C@H](NC(=O)[C@H](CCCNC(=N)N)NC(=O)[C@H](CCCNC(=N)N)NC(=O)CNC(=O)[C@H](C)NC(=O)[C@@H](N)Cc1ccc(O)cc1)C(=O)N[C@@H](CCCCN)C(=O)NCC(=O)N[C@@H](C)C(=O)N[C@@H](CCCNC(=N)N)C(=O)N[C@@H](CCCNC(=N)N)C(=O)N[C@@H](CC(C)C)C(=O)N[C@@H](CCCCN)C(=O)N[C@@H](CC(C)C)C(=O)N[C@@H](CO)C(=O)N1CCC[C@H]1C(=O)O,Mapk1,"enzyme activity, inhibitor, fluorescence",,pH 7.4,IC50,40.9 µM
Cc1cc(Nc2ccc(Cl)cc2)n2nc(C(F)(F)F)nc2n1,"Dihydroorotate dehydrogenase (quinone), mitochondrial (PFF0160c, Plasmodium falciparum, UniProt Q08210)","enzyme activity, inhibitor, absorbance",,,IC50,0.0486 µM

# For quick reference, copied from above:
Structure (SMILES),target or system,assay,test system,setting,endpoint,result
Cc1[nH]c(C)c(S(=O)(=O)NC2CCCCC2)c1C(=O)N1CCCC1,"D(3) dopamine receptor (DRD3, Homo sapiens, UniProt P35462)","Go activation, antagonist, BRET",,together with: dopamine,IC50,> 100 µM
CC(C)N1CCCCC1C(=O)NC(Cc1ccc(-c2ccccc2)cc1)B(O)O (stereo not shown),"Proteasome subunit beta type-10 / Proteasome subunit beta type-3 (Homo sapiens, UniProt P40306+P49720)","β2i activity, inhibitor",,"immunoproteasome, together with: Ac-KQL-AMC",IC50,> 10 µM
CC[C@H](C)[C@H](NC(=O)[C@H](CCCCN)NC(=O)[C@H](CC(C)C)NC(=O)[C@@H]1CCCN1C(=O)[C@H](CCCNC(=N)N)NC(=O)[C@@H]1CCCN1C(=O)[C@H](CCCCN)NC(=O)[C@@H](NC(=O)[C@H](CCCCN)NC(=O)[C@H](CC(N)=O)NC(=O)[C@H](CCCCN)NC(=O)[C@@H](NC(=O)[C@H](C)NC(=O)[C@@H](N)Cc1ccc(O)cc1)[C@@H](C)O)C(C)C)C(=O)N[C@H](C(=O)N[C@@H](CCCNC(=N)N)C(=O)O)[C@@H](C)CC,Mapk1,"enzyme activity, inhibitor, fluorescence",,pH 7.4,IC50,7.75 µM
CN(C)[C@H]1C[C@@]23CC[C@@]4(O2)C(=CC[C@]2(C)[C@@H](c5ccc6ccncc6c5)CC[C@H]24)C=C3[C@@H](O)[C@@H]1O,"Serine/threonine-protein kinase STK11 (STK11, Homo sapiens, UniProt Q15831)","ATP probe labelling, inhibitor, KiNativ profiling",,1 µM,inhibition,7.1%
